Measured values pooled from the literature.
A part holds a random share of what one study measured. Several values in a cell are separate wells, animals, samples, runs or records.
Sequence of UniProt Q59H18 (whole entry, looked up): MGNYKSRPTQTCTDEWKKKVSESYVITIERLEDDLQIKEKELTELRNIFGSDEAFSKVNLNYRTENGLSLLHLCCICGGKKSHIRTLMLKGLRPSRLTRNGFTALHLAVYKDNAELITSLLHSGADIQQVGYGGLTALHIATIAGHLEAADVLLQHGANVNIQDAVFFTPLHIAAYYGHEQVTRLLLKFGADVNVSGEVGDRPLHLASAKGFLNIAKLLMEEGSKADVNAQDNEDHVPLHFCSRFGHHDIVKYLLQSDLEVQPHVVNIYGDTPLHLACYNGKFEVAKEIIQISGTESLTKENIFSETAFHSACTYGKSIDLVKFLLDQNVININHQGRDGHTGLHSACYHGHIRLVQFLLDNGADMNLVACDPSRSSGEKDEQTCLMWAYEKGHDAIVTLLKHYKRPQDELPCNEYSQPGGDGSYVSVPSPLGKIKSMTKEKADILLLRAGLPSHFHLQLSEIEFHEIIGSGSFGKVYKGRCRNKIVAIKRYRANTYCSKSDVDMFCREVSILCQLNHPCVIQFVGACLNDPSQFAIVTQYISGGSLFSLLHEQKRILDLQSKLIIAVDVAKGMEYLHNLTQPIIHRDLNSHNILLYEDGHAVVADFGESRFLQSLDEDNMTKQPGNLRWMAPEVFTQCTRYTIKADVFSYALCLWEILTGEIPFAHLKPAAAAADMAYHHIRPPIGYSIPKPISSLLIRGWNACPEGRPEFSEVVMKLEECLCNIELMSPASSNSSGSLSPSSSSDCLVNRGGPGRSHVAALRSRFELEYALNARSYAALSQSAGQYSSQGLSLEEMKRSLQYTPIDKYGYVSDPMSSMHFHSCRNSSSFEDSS
Sequence of UniProt P19525 (whole entry, looked up): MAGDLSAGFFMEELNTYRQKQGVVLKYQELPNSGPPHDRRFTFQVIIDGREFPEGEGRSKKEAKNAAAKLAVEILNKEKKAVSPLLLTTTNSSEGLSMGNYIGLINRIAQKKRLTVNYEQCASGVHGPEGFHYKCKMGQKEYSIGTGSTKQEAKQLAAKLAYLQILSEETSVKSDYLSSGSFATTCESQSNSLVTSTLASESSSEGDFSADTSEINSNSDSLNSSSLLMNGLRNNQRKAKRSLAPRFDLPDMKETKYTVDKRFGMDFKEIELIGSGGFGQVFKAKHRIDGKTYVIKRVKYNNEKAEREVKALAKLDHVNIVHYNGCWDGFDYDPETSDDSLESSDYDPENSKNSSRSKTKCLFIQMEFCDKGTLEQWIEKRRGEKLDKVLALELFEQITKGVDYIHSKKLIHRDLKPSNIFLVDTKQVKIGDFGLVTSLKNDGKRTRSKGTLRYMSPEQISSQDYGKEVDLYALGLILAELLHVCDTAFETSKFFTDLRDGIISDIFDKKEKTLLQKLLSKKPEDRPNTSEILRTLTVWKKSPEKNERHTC

Set 1 — observed: enzyme activity; action: inhibitor; concentration: 77 µM; relative to: untreated; endpoint: remaining activity
Target: DNA polymerase theta, ATPase domain (POLQ, Homo sapiens, UniProt O75417)
Sequence of UniProt O75417 (whole entry, unmodified, looked up): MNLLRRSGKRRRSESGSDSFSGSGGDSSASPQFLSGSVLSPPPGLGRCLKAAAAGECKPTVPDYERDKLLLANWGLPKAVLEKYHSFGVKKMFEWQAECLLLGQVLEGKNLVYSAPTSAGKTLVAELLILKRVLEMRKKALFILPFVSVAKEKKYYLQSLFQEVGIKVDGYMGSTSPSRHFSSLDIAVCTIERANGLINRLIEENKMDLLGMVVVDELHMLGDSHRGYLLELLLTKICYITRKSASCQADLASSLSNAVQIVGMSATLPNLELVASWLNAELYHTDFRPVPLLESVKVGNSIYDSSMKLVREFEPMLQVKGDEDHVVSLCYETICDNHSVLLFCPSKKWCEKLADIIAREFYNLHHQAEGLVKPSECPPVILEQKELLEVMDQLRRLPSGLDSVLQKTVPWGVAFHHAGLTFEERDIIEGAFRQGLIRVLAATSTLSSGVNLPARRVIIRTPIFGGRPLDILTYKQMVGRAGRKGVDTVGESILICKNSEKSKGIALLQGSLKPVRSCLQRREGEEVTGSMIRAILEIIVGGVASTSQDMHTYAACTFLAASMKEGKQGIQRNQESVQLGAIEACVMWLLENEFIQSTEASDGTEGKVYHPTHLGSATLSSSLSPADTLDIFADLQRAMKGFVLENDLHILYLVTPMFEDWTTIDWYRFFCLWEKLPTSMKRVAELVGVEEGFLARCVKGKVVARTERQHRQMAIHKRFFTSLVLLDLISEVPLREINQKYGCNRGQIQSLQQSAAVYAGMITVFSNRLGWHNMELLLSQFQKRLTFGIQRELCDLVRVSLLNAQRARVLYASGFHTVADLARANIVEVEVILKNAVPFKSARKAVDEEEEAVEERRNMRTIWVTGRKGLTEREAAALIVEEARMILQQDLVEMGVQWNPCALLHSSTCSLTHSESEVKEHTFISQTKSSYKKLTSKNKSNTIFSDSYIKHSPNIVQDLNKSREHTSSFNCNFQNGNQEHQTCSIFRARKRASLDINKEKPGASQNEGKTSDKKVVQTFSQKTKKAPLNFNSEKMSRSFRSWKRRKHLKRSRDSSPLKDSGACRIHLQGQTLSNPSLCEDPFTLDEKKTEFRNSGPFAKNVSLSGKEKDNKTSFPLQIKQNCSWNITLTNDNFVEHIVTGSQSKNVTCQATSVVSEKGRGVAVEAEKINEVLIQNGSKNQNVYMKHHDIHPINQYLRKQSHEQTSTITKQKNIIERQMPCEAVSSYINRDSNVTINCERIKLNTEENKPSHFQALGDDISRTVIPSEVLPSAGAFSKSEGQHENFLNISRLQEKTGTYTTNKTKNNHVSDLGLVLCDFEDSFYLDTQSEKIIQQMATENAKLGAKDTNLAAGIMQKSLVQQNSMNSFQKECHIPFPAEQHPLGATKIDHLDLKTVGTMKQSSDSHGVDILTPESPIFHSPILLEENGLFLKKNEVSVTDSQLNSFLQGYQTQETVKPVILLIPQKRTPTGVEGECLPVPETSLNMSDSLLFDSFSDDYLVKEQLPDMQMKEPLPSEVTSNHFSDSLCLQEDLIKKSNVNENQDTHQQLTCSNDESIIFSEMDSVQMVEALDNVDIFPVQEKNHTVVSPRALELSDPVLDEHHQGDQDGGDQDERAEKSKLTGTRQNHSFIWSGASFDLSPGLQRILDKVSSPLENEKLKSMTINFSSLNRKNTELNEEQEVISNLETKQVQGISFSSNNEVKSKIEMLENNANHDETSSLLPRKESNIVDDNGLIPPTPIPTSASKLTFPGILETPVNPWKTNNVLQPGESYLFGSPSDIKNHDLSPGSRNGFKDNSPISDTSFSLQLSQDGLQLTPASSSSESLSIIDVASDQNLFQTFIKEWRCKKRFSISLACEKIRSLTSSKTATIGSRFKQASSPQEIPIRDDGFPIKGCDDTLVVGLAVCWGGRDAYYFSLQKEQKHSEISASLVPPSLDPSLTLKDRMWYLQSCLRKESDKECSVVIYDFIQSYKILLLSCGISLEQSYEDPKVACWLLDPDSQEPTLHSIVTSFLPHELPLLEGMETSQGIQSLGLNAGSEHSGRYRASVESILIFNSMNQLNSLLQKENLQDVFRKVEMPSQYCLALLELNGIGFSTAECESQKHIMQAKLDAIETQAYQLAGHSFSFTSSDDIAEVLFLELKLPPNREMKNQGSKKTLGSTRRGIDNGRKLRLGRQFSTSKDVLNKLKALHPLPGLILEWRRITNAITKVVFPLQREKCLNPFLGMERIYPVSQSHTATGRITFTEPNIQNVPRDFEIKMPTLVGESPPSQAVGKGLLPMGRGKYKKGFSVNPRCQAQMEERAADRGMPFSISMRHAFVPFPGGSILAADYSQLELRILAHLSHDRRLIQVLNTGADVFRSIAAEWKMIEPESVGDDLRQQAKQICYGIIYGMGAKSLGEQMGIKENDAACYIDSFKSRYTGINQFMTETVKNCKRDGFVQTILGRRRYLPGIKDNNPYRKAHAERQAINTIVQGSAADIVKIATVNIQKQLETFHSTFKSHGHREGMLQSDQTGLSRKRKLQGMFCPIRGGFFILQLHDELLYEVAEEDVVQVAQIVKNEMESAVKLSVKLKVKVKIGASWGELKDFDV
Cn1c(O)c(-c2[nH]c3ccccc3c2N=O)c2ccc(Br)cc21: 111%
O=c1cc(N2CCOCC2)oc2c(-c3cccc4c3sc3ccccc34)cccc12: 88.8%
CC[C@H](NC(=O)c1c(C)c(-c2ccccc2)nc2ccccc12)c1ccccc1: 111%
O=c1c(O)c(-c2ccc(O)c(O)c2)oc2cc(O)ccc12: 103%
COc1ccc(C2=N[C@H](c3ccc(Cl)cc3)[C@H](c3ccc(Cl)cc3)N2C(=O)N2CCNC(=O)C2)c(OC(C)C)c1: 99.7%
c1cnc2c(c1)ccc1cccnc12: 104%
COc1cc2c(cc1OC)CN(CCc1ccc(NC(=O)c3cc(OC)c(OC)cc3NC(=O)c3cnc4ccccc4c3)cc1)CC2: 97.3%
CCN(CC)CCNC(=O)c1c(C)[nH]c(/C=C2\C(=O)Nc3ccc(Cl)cc32)c1C: 100%
COc1cc(-c2ccc(=O)[nH]n2)ccc1OC(F)F: 103%
CC1(C)CC(=O)c2c(C(F)(F)F)nn(-c3ccc(C(N)=O)c(N[C@H]4CC[C@H](OC(=O)CN)CC4)c3)c2C1: 97.3%
Nc1ccc(C(=O)NCC(=O)O)cc1: 96.3% and 110%
CCCCOc1cc(C(=O)NCCN(CC)CC)c2ccccc2n1: 101% and 95.2%
CS(=O)(=O)N1CCc2c(-c3cnc(N)nc3)nc(N3CCOCC3)nc21: 102%

Set 2 — observed: enzyme activity; action: inhibitor; concentration: 10 µM; endpoint: inhibition
Target: Calcium/calmodulin-dependent protein kinase type II subunit alpha (CAMK2A, Homo sapiens, UniProt Q9UQM7)
Sequence of UniProt Q9UQM7 (whole entry, looked up): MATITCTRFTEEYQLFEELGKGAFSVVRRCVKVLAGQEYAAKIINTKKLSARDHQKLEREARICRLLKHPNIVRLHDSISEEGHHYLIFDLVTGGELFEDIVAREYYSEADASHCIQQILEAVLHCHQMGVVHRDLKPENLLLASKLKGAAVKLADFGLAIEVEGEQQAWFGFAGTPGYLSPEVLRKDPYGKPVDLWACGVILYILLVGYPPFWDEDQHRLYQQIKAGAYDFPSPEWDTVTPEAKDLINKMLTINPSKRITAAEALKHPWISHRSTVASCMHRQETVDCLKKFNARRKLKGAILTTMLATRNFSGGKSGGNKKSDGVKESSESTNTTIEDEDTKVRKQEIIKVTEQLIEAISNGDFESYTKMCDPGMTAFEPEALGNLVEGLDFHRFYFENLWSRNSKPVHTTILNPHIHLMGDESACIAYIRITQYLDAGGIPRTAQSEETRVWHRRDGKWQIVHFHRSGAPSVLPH
NC(=O)N[C@@H](CCC(=O)O)C(=O)O: -1%
Nc1ncnc(N[C@@H]2O[C@H](CO)[C@@H](O)[C@H]2O)c1[N+](=O)[O-]: -26%
COC(=O)C=Cc1ccc(O)cc1: -19%
COC(=O)c1ccco1: -31%
O=C(O)CCc1nc(-c2ccccc2)c(-c2ccccc2)o1: 6%
COc1ccccc1OCC(O)COC(N)=O (centres unmarked): -1%
CC(C)=CC[C@@H](O)C1=CC(=O)c2c(O)ccc(O)c2C1=O: -13%
O=C(O)c1ccc2ccccc2c1O: -5%
O=C(O)c1cc(/N=N/c2ccc(O)c(C(=O)O)c2)ccc1O: -6%
O=c1c2cc(O)c(O)cc2oc2c([C@@H]3O[C@H](CO)[C@@H](O)[C@H](O)[C@H]3O)c(O)cc(O)c12: 22%
CC1(C)CCC2=C(O1)c1ccccc1C(=O)C2=O: -2%

Set 3 — observed: enzyme activity; action: inhibitor; concentration: 0.5 µM; relative to: control; endpoint: remaining activity
Target: cAMP-dependent protein kinase catalytic subunit PRKX (PRKX, Homo sapiens, UniProt P51817)
Sequence of UniProt P51817 (whole entry, looked up): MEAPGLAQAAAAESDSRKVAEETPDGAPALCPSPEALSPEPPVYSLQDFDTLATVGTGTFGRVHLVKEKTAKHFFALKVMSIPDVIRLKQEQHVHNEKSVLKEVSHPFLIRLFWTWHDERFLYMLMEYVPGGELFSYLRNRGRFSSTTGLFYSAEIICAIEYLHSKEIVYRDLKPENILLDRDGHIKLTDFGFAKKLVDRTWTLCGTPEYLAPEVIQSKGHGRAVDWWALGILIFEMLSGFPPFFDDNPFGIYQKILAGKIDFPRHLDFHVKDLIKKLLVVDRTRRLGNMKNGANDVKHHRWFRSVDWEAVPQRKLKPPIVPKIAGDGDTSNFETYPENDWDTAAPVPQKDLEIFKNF
CN1CCN(c2ccc3nc(-c4c(N)c5c(F)cccc5[nH]c4=O)[nH]c3c2)CC1: 104%
Cc1ccc(S(=O)(=O)/C=C/C#N)cc1: 102%
O=C1NC(=O)c2c1c1c3ccccc3[nH]c1c1[nH]c3cc(Br)ccc3c21: 85.1%
O=c1cc(N2CCOCC2)oc2c(-c3ccccc3)cccc12: 101%
CCCCc1c(-c2ccc(OC)cc2)[nH]c2nccnc12: 102%
Cc1cc(Nc2cc(N3CCN(C)CC3)nc(Sc3ccc(NC(=O)C4CC4)cc3)n2)[nH]n1: 137%
COc1ccc(COc2ccc(Cc3cnc(N)nc3N)cc2OC)cc1: 104%
O=C1NC(=O)c2c1c1c3ccccc3[nH]c1n1cncc21: 87.8%
COc1cccc(-c2cc(=O)c3ccccc3o2)c1N: 101%
O=Nc1c(-c2c(O)[nH]c3cc(Br)ccc23)[nH]c2ccccc12: 92.1%
O=C1Cc2c([nH]c3ccc(Br)cc23)-c2ccccc2N1: 100%
O=C(c1cc2cc(O)ccc2[nH]1)c1cc2cc(O)ccc2[nH]1: 94.5%
CCCNC(=O)Nc1ccc(Oc2ncnc3cc(OC)c(OC)cc23)cc1Cl: 100%
N#Cc1cnc2cnc(NCc3cccnc3)cc2c1Nc1ccc(F)c(Cl)c1: 101%
CN(C)S(=O)(=O)c1ccc2c(c1)/C(=C/c1cc3c([nH]1)CCCC3)C(=O)N2: 98.1%
O=C1Nc2ccccc2/C1=C\c1c(Cl)[nH]c2ccccc12: 106%
COc1ccc2c(c1)c(C1=C(c3c[nH]c4ccccc34)C(=O)NC1=O)cn2CCCN(C)C: 102%
Oc1cccc(-c2nc(N3CCOCC3)c3oc4ncccc4c3n2)c1: 96.2%
c1ccc2c(-c3ccncc3)c[nH]c2c1: 54.3%
O=C1Nc2ccc(Br)cc2/C1=C/c1cc2c([nH]1)CCCC2: 97.2%
c1ccc(-c2n[nH]c3c2oc2ccccc23)cc1: 79.8%

Set 4 — observed: cell-free assay; method: competition with immobilised ligand; concentration: 1 µM; endpoint: remaining binding
Compound: CN([C@@H]1CCc2c(CC(=O)O)c3cc(S(C)(=O)=O)ccc3n2C1)S(=O)(=O)c1ccc(F)cc1
Aurora kinase A (AURKA, Homo sapiens, UniProt O14965): 100%
PRKG2 (Homo sapiens, UniProt Q13237): 95%
TNNI3K (Homo sapiens, UniProt Q59H18): 100%
MAP2K6 (Homo sapiens, UniProt P52564): 100%
MKNK1 (Homo sapiens, UniProt Q9BUB5): 86%
EIF2AK2 (Homo sapiens, UniProt P19525): 100%
NEK6 (Homo sapiens, UniProt Q9HC98): 84%
Ribosomal protein S6 kinase alpha-3, C-terminal kinase domain (RPS6KA3, Homo sapiens, UniProt P51812): 81%
CAMK1 (Homo sapiens, UniProt Q14012): 80%
PAK1 (Homo sapiens, UniProt Q13153): 95%
CDK2 (Homo sapiens, UniProt P24941): 100%

A few entries again (set 2):
O=C(O)c1ccc2ccccc2c1O: -5%
O=C(O)c1cc(/N=N/c2ccc(O)c(C(=O)O)c2)ccc1O: -6%
O=c1c2cc(O)c(O)cc2oc2c([C@@H]3O[C@H](CO)[C@@H](O)[C@H](O)[C@H]3O)c(O)cc(O)c12: 22%
